Measured values collected from several papers.
Numbered parts are unrelated; each lists some results of a single study.

Set 1
Target: Prothrombin, mature alpha-thrombin (F2, Homo sapiens, UniProt P00734)
Technique: aptamer microarray, sandwich
Form: DNA with 2'F-ANA
Matrix: in vitro
Tested at: 200 nM
Notes: whole 15-mer aptamer, many near background
Together with: Cy3 exosite-II aptamer, 400 nM
Direction: higher = stronger binding
Measurement: mean fluorescence intensity
Sequence: GGTTGGTGTGGTTGG
2'F-ANA at 3 4 6 7 8 10 11 12 13 15: 235 a.u.
2'F-ANA at 1 3 4 5 7 8 9 10 11 13: 59.6 a.u.
2'F-ANA at 1 3 4 5 8 9 12: 158 a.u.
2'F-ANA at 1 4 5 6 8 9 11 15: 51.5 a.u.
2'F-ANA at 1 2 5 7 8 10 11 15: 137 a.u.
2'F-ANA at 1 6 7 13 14: 54.9 a.u.
2'F-ANA at 1 6 7 8 10 15: 56.9 a.u.
2'F-ANA at 3 6 7 10 13 15: 478 a.u.
2'F-ANA at 3 4 5 7 9 10 14: 49.8 a.u.
2'F-ANA at 1 3 4 5 13: 47 a.u.
2'F-ANA at 1 6 8 9 10 12 15: 66.9 a.u.
2'F-ANA at 1 2 3 4 6 10 11 12 13 15: 86.3 a.u.
2'F-ANA at 2 4 5 6 7 9 12 13 14 15: 49 a.u.
2'F-ANA at 1 2 3 6 11 12 13 14: 74.9 a.u.
2'F-ANA at 1 3 4 10 13 15: 74 a.u.
2'F-ANA at 1 4 5 8 9 12: 108 a.u.
2'F-ANA at 3 4 7 11: 617 a.u.
2'F-ANA at 1 2 4 8 9 10 11 13 14 15: 56.7 a.u.
2'F-ANA at 2 4 6 9 12 13 15: 299 a.u.
2'F-ANA at 2 3 4 7 12 14 15: 420 a.u.
2'F-ANA at 2 4 7 10 11 12 14: 63.5 a.u.
2'F-ANA at 1 2 7 8 9 10 11 15: 73.5 a.u.
2'F-ANA at 1 4 6 7 9 10: 50 a.u.
2'F-ANA at 1 3 5 6 12 13 14: 43 a.u.
2'F-ANA at 6 7 11: 462 a.u.

Set 2
Target: Histone acetyltransferase KAT6A, winged helix 2, GST fusion (KAT6A, Homo sapiens, UniProt Q92794, residues 85-181)
Technique: protein binding microarray
Form: double-stranded DNA, one strand shown
Matrix: in vitro
Tested at: not given
Notes: 8-mer, flanks averaged, mean of 2 arrays, mostly near background
Reference: not given
Direction: higher = stronger binding
Measurement: E-score
Construct (chain): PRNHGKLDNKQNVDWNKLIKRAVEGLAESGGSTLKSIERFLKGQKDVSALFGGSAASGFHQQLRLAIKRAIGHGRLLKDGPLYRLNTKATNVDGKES
AGACAGGA: 0.178
AGGAGTGA: -0.0525
ACTCTTTA: -0.111
CTGATGAA: 0.0581
CATCCGGC: 0.187
GGGGTTCA: -0.199
GGTATTGA: -0.0821
GTCTAACA: -0.228
CTATCGAG: 0.0406
CCCTGTCG: 0.112
GTAAATAC: -0.0444
AGTAAACT: 0.0164
AGCGGCAG: 0.198
GACAGATA: -0.00196
CCACCATC: -0.106
ACCTTGCC: -0.0225
ATAAAAGA: -0.0864
CAGGGAGC: -0.0209

Set 3
Target: Centromere-binding protein 1, full length, His-tagged (CBF1, Saccharomyces cerevisiae, UniProt P17106, residues 1-351)
Sequence of UniProt P17106 (whole entry, looked up): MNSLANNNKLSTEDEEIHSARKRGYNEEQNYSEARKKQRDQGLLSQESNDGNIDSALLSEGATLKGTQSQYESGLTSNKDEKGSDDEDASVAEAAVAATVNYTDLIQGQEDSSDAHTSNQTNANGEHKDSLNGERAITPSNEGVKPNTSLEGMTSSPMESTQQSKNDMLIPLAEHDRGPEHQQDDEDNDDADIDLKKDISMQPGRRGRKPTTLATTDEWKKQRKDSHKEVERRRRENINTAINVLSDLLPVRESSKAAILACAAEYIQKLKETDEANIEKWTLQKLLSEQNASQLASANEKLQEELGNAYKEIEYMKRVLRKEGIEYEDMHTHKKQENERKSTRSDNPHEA
Technique: competition protein-binding microarray
Form: double-stranded DNA, one strand shown
Matrix: in vitro
Tested at: 2 µM
Notes: whole 60-bp probe, lowest competitor level
Together with: Pho4 competitor, 0.05 µM
Direction: higher = stronger binding
Measurement: fluorescence intensity
All sequences stand within: … GTCTTGATTCGCTTGACGCTGCTG
CGGTGGAGTATTTCACACGTTATGTCGCTGGTTTGC: 85.1 a.u.
TTAAGCGACCTCCTGCCCGTGAGAGAATCAAGTAAG: 75.1 a.u.
CTTCTGTAAATTTGCTAAGTGGGTGGACGCGCCCCG: 86.8 a.u.
CCTTCGAAGAAGTTGTTCGTGCCAGCCACAACGGAG: 70.5 a.u.
GCACAATTTTATGACCGCGTGTTTTCGAATTTTGAC: 179 a.u.
CGTCCTAGTGATTGGGTCGTGGGTGCCATGAGGAAG: 76.3 a.u.
CTTTCTGCCAAATTGAACGTGTCGGTCAAGCAATCC: 83.3 a.u.
ATACTGTTGTATTTCCGCGTGAAGCCACTTTTAACC: 105 a.u.
TAACTAATAAGTAGTCACCTGACTGTGATATAAATT: 3650 a.u.
CGTCCTAGTGATTGCCTCGTGGGTGCCATGAGGAAG: 134 a.u.
ATAAGGAATAAAAAACACGTGCTAATAAAAAATCAA: 4150 a.u.
CTAACGAAGGTTTGTCACGTGGGTGACAAGCCAAGT: 4620 a.u.
CATACCCAACCTTGACTTGTGGGTGAAGATATTTGT: 74.6 a.u.
TAACAGCAATTGCACCACATGCAAGTCTCATATGCA: 102 a.u.
TGTTAGCGCAAATGCTACATGACAGGCCAATCGTAG: 67 a.u.
ATGGTTCTAGCGAGTCACGTGCAAATTTTTAAAAAT: 11900 a.u.
CCCAAACTCTCAAAGCACGATCTAGAGAACCAGCAG: 70.7 a.u.
ATTTTTCTTTCGAGTCACGTCACCGCTACTAATGTT: 221 a.u.
AGAAAGTCTTGTAACCAGATGGTGACAAAAACTTGG: 93.2 a.u.
CATACCCAACCTTGTCACTGTACTTAAGATATTTGT: 68.8 a.u.
GTCTTGTCTCATTGTCACTTTACTTTCCCCACTTCA: 79.6 a.u.
GAACTTGTGCTGTGCCAGATTGAATTTTGAAAGTAC: 84.7 a.u.
TGCGCAACAACTTTGCACGTGTTTTTATGTCTAGAA: 2160 a.u.
GAGGCAAACCATCACCATGTGGTGGTTTCAACATGA: 91.9 a.u.

Set 4
Target: RING finger protein unkempt homolog, zinc fingers 1-6, GST-SBP tag (UNK, Homo sapiens, UniProt Q9C0B0, residues 30-357)
Technique: RNA Bind-n-Seq
Form: RNA
Matrix: in vitro
Tested at: not given
Notes: RNA with constant flanks, human and mouse sites, ends assumed
Reference: input RNA pool
Direction: higher = stronger binding
Measurement: bound/input enrichment
All sequences stand within: GGGAGUUCUACAGUCCGACGAUC … CAACAGAGGAUUGAGCAUCA
Construct (chain): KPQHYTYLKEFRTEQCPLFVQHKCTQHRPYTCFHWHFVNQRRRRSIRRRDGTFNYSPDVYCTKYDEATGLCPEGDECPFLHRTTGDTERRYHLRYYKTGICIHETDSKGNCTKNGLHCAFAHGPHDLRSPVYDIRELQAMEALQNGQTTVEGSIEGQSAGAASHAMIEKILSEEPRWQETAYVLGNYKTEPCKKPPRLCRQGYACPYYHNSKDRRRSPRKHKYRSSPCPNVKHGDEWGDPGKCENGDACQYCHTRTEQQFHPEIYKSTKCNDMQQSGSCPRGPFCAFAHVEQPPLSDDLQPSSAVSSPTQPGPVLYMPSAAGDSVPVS
CCCCUCAAGCACCAACACAUUUUCUGGUGAUACCCAAGAAACAUAUAUCCCAGAUUUCUGUGGCAGAAGAUGAUGAUGAAAGUCUUCUUGGACACUUAAUGAUUGUUGGCAAGAAAUGUG: 0.238 ratio
GUUUCUAUAGUGCUGUUGGGGACUGCUUUGCUUCUGUGUCCUACCCAGGUUUGUCUACACACUCGGACAGUACUUUACACUAUAUAGUUCAGUUCUCAGACUUGUCUCUAUCUUGCCUCU: 0.362 ratio
AGAGCUAUCCAGGGAGGAACAUCACAUCAUUUAGGGCAGAAUUUUUCCAAAAUGUUUGAAAUCGUUUUUGAAGAUCCAAAGAUACCAGGAGAGAAGCAAUUUGCCUAUCAAAACUCCUGG: 0.204 ratio
GUGGCAGUAGAUUCUACAGGCACGUACAUGGCCACCUCUGGUCUGGACCACCAGCUGAAGAUCUUUGACUUGCGAGGGACAUUCCAGCCCCUGAGUUCCCGGACCUUGCCCCAGGGAGCA: 0.333 ratio
UCUCUACGCUGCGGGGAUGCAGCCCGCACCCUGGGGCCCCGGGUAUUUGGGAGAUAUUUUUGCAGCCCAGUCAGACCGUUAAGCUCCUUGCCAGAUAAAAAAAAGGAACUCCUACAGAAU: 0.352 ratio
UUAGAACAGGAAAAUUCAGAGCUAGAAAGAGAAAAUAGGAAAUUUAAAAAAACUUUGGACAGCUUUAAAAACCUUACUUUUCAGUUAGAAUCUCUAGAAAAAGAGAAUUCCCAACUCGAU: 5.43 ratio
UGGUGGAUUGGAAUCAAGUGGGUGGCUGGAGGCCAAGCGUUUUUCGGGGCCCAGAUGAACUCUUUCAUCCACGUGAUCAUGUACUCCUACUAUGGGCUGACUGCGUUCGGCCCCUGGAUC: 0.0657 ratio
GGGACUGAUUCAUCCCAAGGACAGGCCACCCCAUUUGAUGCCUGGACUGAUGACAGUAUGGAAGGGCCUAGUCAAAAUGUUGAAGCUGAGUCAAUUCAGGAUGCCAUGAGUAUGGAAGAG: 0.336 ratio
AAGAGAAAGAAAAUGCCGAAACCAAUCAACGUAAGAGUAACUACAAUGGAUGCUGAGCUGGAAUUUGCCAUUCAGCCCAAUACAACUGGCAAACAACUUUUUGACCAGGUGGUGAAAACA: 0.363 ratio
AUUUCUCUCUGCAGGUUGGGGAUUAAAGUUCCUUUCCCCAUGGGUUUGAAGCAGACUCAGACUGUCUCAGGAUCAAAGCAACCCUCAAUGGUUUUGAUUUAUGUCAUUGCUUACCACUCC: 0.184 ratio
GGAUCUAGCCUUGGAGGGUGGCUUAUGCUUCAUGCUGCAAUUGCACGACCAGAGAAGGUCGUGGCUCUUAUUGGUGUAGCUACAGCUGCAGAUACCUUAGUGACAAAGUUUAAUCAGCUU: 0.472 ratio

Set 5
Target: RNA binding protein fox-1 homolog 2, RRM domain, GST-SBP tag (RBFOX2, Homo sapiens, UniProt O43251-10, residues 100-194)
Technique: RNA Bind-n-Seq
Form: RNA
Matrix: in vitro
Tested at: 365 nM
Notes: natural RNA segment, single round, ends assumed
Reference: no-protein control
Direction: higher = stronger binding
Measurement: RBNS enrichment (R)
All sequences stand within: GGGAGUUCUACAGUCCGACGAUC … UGGAAUUCUCGGGUGCCAA
UGAAAUUACUUGCUUCCCAAAUUAAAUAAAUUUCAUCUCAUUUUUUUCCCUAAACCAGCACCCAUCUGCCUUUUAUUCCCCAAAGAGUUACCUUUCCCAGAUUAGGGGGA: 2.15
GUAGCUCUAGGAAAAGAGGUUUUAUUUUGUAAACGAUCAUUUGUGACCUCAGACACUCUCUGGCUAAUAUUUUAAUAAGCUCACAGCAGAUAAUUCUGAGAUCAUGGGUG: 0.421
AUUUAAAAGUCACAAAGUCAUUUAUAAAAAAUGAAGUGAUUAAAUAUUGACCGAGUAUUGUUGAGUAUUGCUAGAGUAGCUAGUUAUCUGGUGAGACUGCUAAUUGAUUC: 1.57
CAAAAACCACCACUUCCUGGGGAGACGUGGAUACCGUCCUCCUUGCCACCAUGGCCAGUAUGUGCAGAGCAGUACUGCAGUGUGUUCAGGGUUAGCGCCCAUGAAAGGGG: 0.423
AUCUAUUUUCUGUUUUACUCGAUUUUGGUUUGGAGGGAAAAGGGCAUUAGUUUAAAAUGUCGUUUUUGUUACAGCACAAAGGUUUUGUUUACCCGUCAAGUAUUAGCAGC: 0.487
CGCUGGCCCUGGAUGUCAUACGAGUUGGGGACCAGAAAUCUGGGCUCAGAGAACCCGUCCAGGGAGAUUUGAAGCCAUGGGUUAUCUUCUAGAGUUGAUACUGAUAAUAU: 0.431
CAUUGUGGGCAUAUGGUGGGCUCCUUGAGAGGAGGGAGUCUCAGCUGGGGCCUGGCUGCAGAGACCUGCUCUUGAAUAGGGCUGCCUUUGGGAUCAGGGAGCCGAGCAUA: 1.48
UUUCAUGUAGAGGAAGGUUAUCCUGUAGCAUAAUGUAUGCACACGGUCAUCUAGUACCUGAUUGGAUAGCUUACAUAUUUAUUGGAUGCUUUGAACAGCUGUAUAUUAGU: 0.735
GAGCUGUGCCAGAUGCUAGACACAUUUAAUAGCUGUCAGAUCAGCUCAUGAUCAUAUCAUGAGAAAACCGCCUUUUCAUAUUUAUUUUUCUAACUGAUCACAUACGCAGG: 0.38
ACCCCGGGCUGAGACCUCCACAGACAAGGGCUCCCCAUGCUGGCCAUUGGCAGGGGCCCAAGAAGUUCAGUGACCAACUGGUCCUUCCACACCACACCAGCUGGUGCUGC: 0.672
ACAGACAAGUCCUGUGUAACCUGCUUUAAAUGCUACACAUGUUAAUAAAAUGCUUAUUUGGUUAGCUUUCAAUGUCUCUUACUGAAAACAUAGCCCCUCUAUAACAUGCA: 0.788
UUCGAUCUGCCUGUCCCUUUUUCCCCUGGGGUUUGACACACAGGCUCCUCUCAGCAUGAGGUGGAGCAGUGACCAGGUGGAGCAGUGACCAGGACGCCUCUGGCCCAGUG: 10.3

Excerpt of the above (set 3):
ATAAGGAATAAAAAACACGTGCTAATAAAAAATCAA: 4150 a.u.
GAACTTGTGCTGTGCCAGATTGAATTTTGAAAGTAC: 84.7 a.u.
CGTCCTAGTGATTGCCTCGTGGGTGCCATGAGGAAG: 134 a.u.
TGCGCAACAACTTTGCACGTGTTTTTATGTCTAGAA: 2160 a.u.
CCTTCGAAGAAGTTGTTCGTGCCAGCCACAACGGAG: 70.5 a.u.
ATGGTTCTAGCGAGTCACGTGCAAATTTTTAAAAAT: 11900 a.u.
GCACAATTTTATGACCGCGTGTTTTCGAATTTTGAC: 179 a.u.
GAGGCAAACCATCACCATGTGGTGGTTTCAACATGA: 91.9 a.u.
CCCAAACTCTCAAAGCACGATCTAGAGAACCAGCAG: 70.7 a.u.
GTCTTGTCTCATTGTCACTTTACTTTCCCCACTTCA: 79.6 a.u.
